Published values gathered from unrelated publications.
Every numbered part comes from another study and shows a few of its results, in no order.

Study 1
Target: Histone acetyltransferase KAT6A, both winged helices, GST fusion (KAT6A, Homo sapiens, UniProt Q92794, residues 1-181)
Technique: protein binding microarray
Molecule type: double-stranded DNA, one strand shown
Matrix: in vitro
Concentration: not given
Setting: 8-mer, flanks averaged, mean of 2 arrays, mostly near background
Baseline: not given
Reading: higher = stronger binding
Endpoint: E-score
Residues (chain): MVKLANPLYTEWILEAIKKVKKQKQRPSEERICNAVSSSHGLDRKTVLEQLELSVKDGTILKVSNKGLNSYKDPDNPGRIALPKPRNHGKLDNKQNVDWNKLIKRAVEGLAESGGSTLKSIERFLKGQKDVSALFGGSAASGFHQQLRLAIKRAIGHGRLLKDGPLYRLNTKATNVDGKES
Oligonucleotide = AACACGAA; result = 0.00974
Oligonucleotide = ACTTGCAC; result = -0.159
Oligonucleotide = ACCAGACA; result = -0.216
Oligonucleotide = ACAAGAGT; result = -0.31
Oligonucleotide = GGATAACC; result = 0.0807
Oligonucleotide = GTTATACA; result = -0.107
Oligonucleotide = CGGCAGAC; result = 0.207
Oligonucleotide = AGTTTCGG; result = 0.0505

Study 2
Target: Interferon regulatory factor 5, full length, phosphomimetic (IRF5, Homo sapiens, UniProt Q13568-2, residues 1-514, S451D/S453D/S456D/S462D)
Technique: protein-binding microarray
Molecule type: double-stranded DNA, one strand shown
Matrix: in vitro
Concentration: 940 nM top
Setting: 60-bp whole probe
Added: salmon DNA 0.4 mg/ml
Baseline: random background probes
Reading: higher = stronger binding
Endpoint: fitted relative affinity
Shared flanks, not repeated: GCCTAGCAC … GTCTTGATTCGCTTGACGCTGCTG
Oligonucleotide = GACGAATTCAGACTGGAGACGTGCTAG; result = -0.374 z-score
Oligonucleotide = TTAGGTTCCGGATTCGGTTAGTGCTAG; result = 1.51 z-score
Oligonucleotide = GACTGTATCGACTATCGGGACGTGCTA; result = 1.51 z-score
Oligonucleotide = TCAATCCCCAGTCTCATACTGTGCTAG; result = 0.911 z-score
Oligonucleotide = GACGATCTCAGTCTCGAAACGTGCTAG; result = 1.5 z-score
Oligonucleotide = GATGGTTTCGACACTGGGGACGTGCTA; result = 8.04 z-score
Oligonucleotide = TTAGGTATCCTTCTCCCTTAGTGCTAG; result = 0.903 z-score
Oligonucleotide = TTAGGTCTCGGTATCGTTTAGTGCTAG; result = 6.01 z-score

Study 3
Target: Sal-like protein 4, full length isoform A (SALL4, Homo sapiens, UniProt Q9UJQ4, residues 1-1053)
UniProt Q9UJQ4, sequence (whole entry, looked up): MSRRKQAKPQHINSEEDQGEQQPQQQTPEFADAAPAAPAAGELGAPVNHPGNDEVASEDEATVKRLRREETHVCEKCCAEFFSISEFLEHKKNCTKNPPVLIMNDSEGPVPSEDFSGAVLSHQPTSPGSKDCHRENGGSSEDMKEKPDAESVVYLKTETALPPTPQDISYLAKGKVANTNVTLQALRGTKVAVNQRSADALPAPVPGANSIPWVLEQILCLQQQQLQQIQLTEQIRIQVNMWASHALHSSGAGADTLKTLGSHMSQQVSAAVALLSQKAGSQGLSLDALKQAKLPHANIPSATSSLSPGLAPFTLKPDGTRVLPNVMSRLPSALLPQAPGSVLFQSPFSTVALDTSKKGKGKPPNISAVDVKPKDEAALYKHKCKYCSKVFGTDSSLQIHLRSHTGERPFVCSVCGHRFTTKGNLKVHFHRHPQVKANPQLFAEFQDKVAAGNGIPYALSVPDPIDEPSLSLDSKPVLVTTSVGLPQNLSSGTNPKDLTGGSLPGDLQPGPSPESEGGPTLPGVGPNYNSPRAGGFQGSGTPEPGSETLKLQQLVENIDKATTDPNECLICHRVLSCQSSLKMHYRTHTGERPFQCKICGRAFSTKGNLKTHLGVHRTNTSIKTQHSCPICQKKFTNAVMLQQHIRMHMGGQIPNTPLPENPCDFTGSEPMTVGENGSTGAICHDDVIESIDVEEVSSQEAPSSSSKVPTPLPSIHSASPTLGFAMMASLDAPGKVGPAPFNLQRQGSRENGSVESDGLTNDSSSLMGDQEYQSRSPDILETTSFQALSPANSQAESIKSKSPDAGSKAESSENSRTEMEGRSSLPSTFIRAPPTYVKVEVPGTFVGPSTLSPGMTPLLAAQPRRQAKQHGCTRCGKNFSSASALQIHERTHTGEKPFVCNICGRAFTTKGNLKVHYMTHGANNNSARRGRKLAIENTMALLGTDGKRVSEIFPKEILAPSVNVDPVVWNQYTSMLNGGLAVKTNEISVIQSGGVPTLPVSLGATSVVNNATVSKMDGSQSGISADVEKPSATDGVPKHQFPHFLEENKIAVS
Technique: universal PBM
Molecule type: double-stranded DNA, one strand shown
Matrix: in vitro
Concentration: 600 nM
Setting: 8-mer, flanks averaged, mean of replicates
Reading: higher = stronger binding
Endpoint: E-score
Oligonucleotide = ATCAAGTG; result = 0.0864
Oligonucleotide = ATGTAACA; result = 0.282
Oligonucleotide = GTTAGAGA; result = 0.0153
Oligonucleotide = AAGCGCGG; result = -0.277
Oligonucleotide = CGACCCTC; result = -0.216
Oligonucleotide = GTATCCCA; result = -0.0348
Oligonucleotide = AACTTAAT; result = 0.253

Further values, each from its own experiment
Molecule = PhoQ, residues 284 288 289 292 302 303 SLANKL; target = PhoP, residues 12 14 15 18 19 VHSCL (Escherichia coli, UniProt P23836); test = Sort-seq, refers to: YFP reporter; test system = E. coli; conditions = PhoQ-PhoP variant library, added: 10 µM Mg2+; how to read = baseline: high Mg2+ state, higher = stronger signaling; endpoint = fold induction; result = 12

Some of these lines once more (study 2):
Oligonucleotide = GACGAATTCAGACTGGAGACGTGCTAG; result = -0.374 z-score
Oligonucleotide = TTAGGTTCCGGATTCGGTTAGTGCTAG; result = 1.51 z-score
